Measured values collected from several papers.
Compare with care: the assays were run in different laboratories. ± marks the error that the study gave.
Cell line: Caco-2 monolayer

| Compound | test | system | conditions | scale | quantity | value |
| --- | --- | --- | --- | --- | --- | --- |
| O=C(CS)NCCCCCC(=O)Nc1cccc2cccnc12 | – | – | with: cyclosporin A 4 µM | baseline: Papp B-A over Papp A-B | efflux ratio | 1.03 |
| Cc1cc(C)c(CNC(=O)c2cc(Cl)c3c(c2C)O[C@@](C)([C@H]2CC[C@H](N(C)C)CC2)O3)c(=O)[nH]1 | – | – | 1 µM, with: verapamil 100 µM | – | Papp apical to basolateral | 4.85 ×10⁻⁶ cm/s |
| Cn1nc2c(=O)n(C3CC3)ccc2c1[C@](O)(c1cnc(C(F)(F)F)c(Cl)c1)C(F)(F)F | – | – | – | – | Papp (A-B) | 43.8 ×10⁻⁶ cm/s |
| COc1ccc(-c2coc3cc(O)cc(O)c3c2=O)cc1 | – | – | 100 µg/mL, 2 h, apical to basolateral | – | recovery | 100.2 ± 0.3% |
| O=c1cc(-c2ccc(O)cc2)oc2c([C@@H]3O[C@H](CO)[C@@H](O)[C@H](O)[C@H]3O)c(O)cc(O)c12 | transwell permeability | – | 100 µg/mL, apical to basolateral, HBSS, DMSO 1%, with: verapamil 0.1 mg/mL | baseline: verapamil alone | Papp increase | 26.9% |
| Cn1nc2c(=O)n(C3CC3)cnc2c1[C@](O)(c1cnc(C(F)(F)F)c(Cl)c1)C(F)(F)F | – | – | – | – | Papp (B-A) | 70.5 ×10⁻⁶ cm/s |
| O=c1c(O[C@@H]2O[C@H](CO)[C@H](O)[C@H](O)[C@H]2O)c(-c2ccc(O)c(O)c2)oc2cc(O)cc(O)c12 | transwell permeability | – | 100 µg/mL, apical to basolateral, HBSS, DMSO 1%, with: digoxin 5 ng/mL | baseline: digoxin alone | Papp increase | 14.9% |
| CC(=O)N[C@H]1[C@H]([C@H](O)[C@H](O)CO)OC(C(=O)O)=C[C@@H]1N=C(N)N | – | HBSS | 180 min, basolateral to apical | – | Papp | 0.045 ± 0.004 ×10⁻⁶ cm/s |
| CCn1cc(C2CC2)c2c(Cc3ccc(C(F)(F)F)nc3)n(C)nc2c1=O | – | – | – | – | Papp (B-A) | 51.3 ×10⁻⁶ cm/s |
| C[C@@H]1O[C@@H](OC[C@H]2O[C@@H](Oc3c(-c4ccc(O)c(O)c4)oc4cc(O)cc(O)c4c3=O)[C@H](O)[C@@H](O)[C@@H]2O)[C@H](O)[C@H](O)[C@H]1O | transwell permeability | – | 100 µg/mL, apical to basolateral, HBSS, DMSO 1%, with: verapamil 0.1 mg/mL | baseline: verapamil alone | Papp increase | 16.8% |

A few entries again:
| Compound | test | system | conditions | scale | quantity | value |
| --- | --- | --- | --- | --- | --- | --- |
| O=c1c(O[C@@H]2O[C@H](CO)[C@H](O)[C@H](O)[C@H]2O)c(-c2ccc(O)c(O)c2)oc2cc(O)cc(O)c12 | transwell permeability | – | 100 µg/mL, apical to basolateral, HBSS, DMSO 1%, with: digoxin 5 ng/mL | baseline: digoxin alone | Papp increase | 14.9% |
